Published values gathered from unrelated publications.
Numbered parts are unrelated; each lists some results of a single study. Positions count from the first letter of the parent shown.

Block 1
Target: ABI1, truncated, D143A, DHFR fusion (Arabidopsis thaliana)
Technique: DHFR PCA, deep sequencing
Medium: yeast
Notes: methotrexate growth selection, single substitutions
Together with: (+)-ABA 200 µM
Reference: wild-type fitted maximum
Direction: higher = stronger binding
Measurement: relative binding score
Parent: PYL1, truncated, DHFR fusion (Arabidopsis thaliana); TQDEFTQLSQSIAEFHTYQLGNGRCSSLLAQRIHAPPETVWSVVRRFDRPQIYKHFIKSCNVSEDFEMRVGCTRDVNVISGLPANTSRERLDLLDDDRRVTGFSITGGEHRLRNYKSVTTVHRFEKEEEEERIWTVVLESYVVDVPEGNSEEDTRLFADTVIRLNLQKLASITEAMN; partner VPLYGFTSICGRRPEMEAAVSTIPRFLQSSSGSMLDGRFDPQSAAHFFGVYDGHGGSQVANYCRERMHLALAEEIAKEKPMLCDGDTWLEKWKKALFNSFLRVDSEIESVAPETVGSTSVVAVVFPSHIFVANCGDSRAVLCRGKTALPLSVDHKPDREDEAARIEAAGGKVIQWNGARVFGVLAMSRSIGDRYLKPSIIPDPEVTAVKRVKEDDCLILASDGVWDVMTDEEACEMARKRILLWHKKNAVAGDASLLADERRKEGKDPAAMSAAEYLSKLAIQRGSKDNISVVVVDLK
H55L: 101%
G71K: 50.4%
N85V: 106%
G148Y: 68%
P37Q: 81.7%

Block 2
Target: CCNB2, cyclin fold, Cln2 fusion (human)
Technique: yeast growth competition, sequencing
Medium: yeast
Notes: weak parent motif
Reference: not given
Direction: higher = stronger binding
Measurement: normalised enrichment score
Parent: MASTL docking peptide (human); PMIAKNLMCELDE; partner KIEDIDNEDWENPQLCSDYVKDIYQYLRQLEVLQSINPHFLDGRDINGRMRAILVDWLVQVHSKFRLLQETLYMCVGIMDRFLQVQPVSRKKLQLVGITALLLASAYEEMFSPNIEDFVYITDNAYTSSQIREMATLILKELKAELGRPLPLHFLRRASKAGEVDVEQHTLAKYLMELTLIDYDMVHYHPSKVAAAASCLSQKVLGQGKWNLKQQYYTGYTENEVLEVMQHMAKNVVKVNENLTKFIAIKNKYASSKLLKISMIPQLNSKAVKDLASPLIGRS
PMIAKNLSCELDE [M8S]: 0.438
PMIAKNLMCELSE [D12S]: 0.639
PMIAKNHMCELDE [L7H]: -1.18
PMIAKNLMCELQE [D12Q]: 0.258
PMIAKNLMFELDE [C9F]: 1.61

Block 3
Target: Histone acetyltransferase KAT6A, winged helix 2, GST fusion (KAT6A, Homo sapiens, UniProt Q92794, residues 85-181)
Technique: protein binding microarray
Molecule type: double-stranded DNA, one strand shown
Medium: in vitro
Concentration: not given
Notes: 8-mer, flanks averaged, mean of 2 arrays, mostly near background
Reference: not given
Direction: higher = stronger binding
Measurement: E-score
Residues (chain): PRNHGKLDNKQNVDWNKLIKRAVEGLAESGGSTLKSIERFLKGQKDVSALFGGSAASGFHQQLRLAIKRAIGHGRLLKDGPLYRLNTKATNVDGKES
AGATAACG: -0.0945
ACTCGTAG: -0.00562
AGTACATC: -0.291
AGCACATG: 0.00219
ACCAAGCG: 0.013
ACTGGCCA: -0.101
CAGCCCAA: 0.0227
AATCCAAG: -0.0351

Further values, each from its own experiment
PhoQ, residues 284 288 289 292 302 303 SMYGEC — fold induction (PhoP, residues 12 14 15 18 19 SQCLL (Escherichia coli, UniProt P23836); Sort-seq, refers to: YFP reporter; E. coli; PhoQ-PhoP variant library, together with: 10 µM Mg2+; reference: high Mg2+ state, higher = stronger signaling): 1.89

Excerpt of the above (block 3):
ACCAAGCG: 0.013
